Results of several laboratories.
Numbered parts are unrelated; each lists some results of a single study. Positions count from the first letter of the parent shown.

Study 1
Target: Interferon regulatory factor 3, full length, phosphomimetic (IRF3, Homo sapiens, UniProt Q14653, residues 1-427, S386D/S396D/S398D/S402D/T404D/S405D)
UniProt Q14653, sequence (whole entry, unmodified, looked up): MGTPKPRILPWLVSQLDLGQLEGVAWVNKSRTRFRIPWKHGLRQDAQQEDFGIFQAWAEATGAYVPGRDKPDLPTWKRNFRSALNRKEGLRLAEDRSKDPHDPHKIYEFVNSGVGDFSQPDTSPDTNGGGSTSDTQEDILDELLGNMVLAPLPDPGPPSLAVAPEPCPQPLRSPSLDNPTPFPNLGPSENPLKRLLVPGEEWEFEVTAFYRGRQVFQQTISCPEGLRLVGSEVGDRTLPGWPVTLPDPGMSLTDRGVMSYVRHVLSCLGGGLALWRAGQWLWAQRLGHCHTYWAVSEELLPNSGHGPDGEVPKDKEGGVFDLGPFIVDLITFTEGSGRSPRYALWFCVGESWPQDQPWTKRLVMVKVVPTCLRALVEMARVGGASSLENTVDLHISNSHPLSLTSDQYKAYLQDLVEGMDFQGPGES
Method: protein-binding microarray
Molecule type: double-stranded DNA, one strand shown
Matrix: in vitro
Concentration: 2540 nM top
Setting: 60-bp whole probe
Together with: salmon DNA 0.4 mg/ml
Relative to: random background probes
Reading: higher = stronger binding
Constant ends, left off below: GCCTAGCAC … GTCTTGATTCGCTTGACGCTGCTG
Strand	fitted relative affinity
GACGGTTTCGGTATCGGAACGTGCTAG	8.31 z-score
GACGGTTTCGCGTTTCGGGACGTGCTA	3.3 z-score
TTAGGACTTGGTCTCGGTTAGTGCTAG	-0.351 z-score
GACGATTTCAGTCTCGTGACGTGCTAG	2.29 z-score
GATGAACTGGGGACTGGAGACGTGCTA	-0.95 z-score
TTAGGTATCCTTATCCCTTAGTGCTAG	5.41 z-score
TCTGTAATTCTTAGAACAGCGTGCTAG	-0.191 z-score
TCAACTCTCTTGTCTGGAACTGTGCTA	0.278 z-score
GATGATATCAGTATCGAGACGTGCTAG	0.998 z-score
TCAATTTTCTCTTATTCACTGTGCTAG	1.38 z-score
TTAGGGATCGGTATCGGTTAGTGCTAG	3.19 z-score
GACGGACTGGGTATTGGGACGTGCTAG	-0.771 z-score
TCACCCCTCCCCCTCAGACTGTGCTAG	0.118 z-score
TCATTTATGGTTTTTTTACTGTGCTAG	1.27 z-score
TCAAGACTTTCTTTCAAACTGTGCTAG	0.534 z-score
TTAGTTCTCGGTTTCGGTTAGTGCTAG	5.32 z-score
GAAGGTTTCCTACTGCTGACGTGCTAG	5.05 z-score
TCTGTTTCCTCTTTCTTTGCGTGCTAG	5.52 z-score
TCTTATATACCTGTATATCTGTGCTAG	0.481 z-score
AGGGCAGGGAGGGGGACAGCGTGCTAG	-0.227 z-score
TCAACTTTCTGAATGCCACTGTGCTAG	2.21 z-score
GACGATCTCAGTTTCGAGATGTGCTAG	2.62 z-score
GCCGGTATCCTACTGCTGACGTGCTAG	3.08 z-score
TCAGTTGTACTTTCTATCACTGTGCTA	1.98 z-score
GACGATAACAGTCTCGAGACGTGCTAG	-0.115 z-score

Study 2
Target: Histone acetyltransferase KAT6A, winged helix 2, GST fusion (KAT6A, Homo sapiens, UniProt Q92794, residues 85-181)
Method: protein binding microarray
Molecule type: double-stranded DNA, one strand shown
Matrix: in vitro
Concentration: not given
Setting: 8-mer, flanks averaged, mean of 2 arrays, mostly near background
Relative to: not given
Reading: higher = stronger binding
Construct (chain): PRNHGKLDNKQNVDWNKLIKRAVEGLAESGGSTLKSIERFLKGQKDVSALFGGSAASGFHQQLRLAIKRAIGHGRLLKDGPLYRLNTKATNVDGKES
Strand	E-score
CCGGACCA	0.0683
GGGAGAAA	0.00407
CATCATAA	-0.144
CAGGATAA	-0.0148
GATTCGGA	0.156
GCGGCCAA	0.146
ATTCTCTC	-0.0442
CATCCAAC	-0.0649
AATGCTGC	-0.0508
AGTCGTGC	-0.112
GCTAAGCA	0.117
AGTTTTCC	0.0567
GAATCCTA	0.00686
GCACTGCA	0.113
GTTGTCCA	-0.138
ACCACATG	-0.125
AGGAAAGA	0.0517
TTGCTAAA	0.136
CGAGTCAA	0.0296
ACCGTCAC	-0.0469
GCCCCCTA	-0.00817
CATCGTGG	-0.0121
CAGCGAAA	0.0839
GGACAGCC	0.154
AGTTGATG	0.0775

Study 3
Target: CCNF, cyclin fold, Cln2 fusion (human)
Method: yeast growth competition, sequencing
Matrix: yeast
Setting: strong parent motif
Relative to: not given
Reading: higher = stronger binding
Parent: E2F1 docking peptide (human); PPVKRRLDFETDH
Variant	normalised enrichment score
V3G	6.83
E10C	7.92
D12G	8.01
K4P	6.16
R6G	5.36
L7V	3.53
D8T	7.43
D12F	7.97
L7C	1.41
L7Q	0.23
D12E	7.29
D8L	7.49
E10Q	7.97
R6C	7.14
D8F	8.61
F9T	1.89
V3P	7.63
D12P	7.77
F9M	7.07
L7P	0.0789
R6V	6.91
E10N	8.12
R6H	6.76
R5V	2.58
R5F	-0.111

Study 4
Target: CREB3L4, bZIP domain (human)
Method: DHFR protein complementation
Matrix: yeast
Setting: single substitutions, most at no-binding floor
Relative to: wild-type JUN-FOS pair
Reading: higher = stronger binding
Parent: JUN, bZIP domain (human); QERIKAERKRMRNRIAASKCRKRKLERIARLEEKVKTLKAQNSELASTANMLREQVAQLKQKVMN; partner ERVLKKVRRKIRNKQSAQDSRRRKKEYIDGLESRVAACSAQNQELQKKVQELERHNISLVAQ
Variant	binding fitness [natural log]
K36T	-1.3
Q55Y	-1.37
R30E	-1.18
S47N	-1.27
S43V	-1.41
L38W	-1.46
K34V	-1.25
V56C	-1.41
R53W	-1.47
K39A	-1.47
R30F	-1.55
A29Q	-1.51
I28Q	-1.63
A40R	-1.35
K39G	-1.48
E32G	-1.4
S43R	-1.41

Study 5
Target: ABI1, truncated, D143A, DHFR fusion (Arabidopsis thaliana)
Method: DHFR PCA, deep sequencing
Matrix: yeast
Setting: methotrexate growth selection, single substitutions
Together with: (+)-ABA 4.8 µM
Relative to: wild-type fitted maximum
Reading: higher = stronger binding
Parent: PYL1, truncated, DHFR fusion (Arabidopsis thaliana); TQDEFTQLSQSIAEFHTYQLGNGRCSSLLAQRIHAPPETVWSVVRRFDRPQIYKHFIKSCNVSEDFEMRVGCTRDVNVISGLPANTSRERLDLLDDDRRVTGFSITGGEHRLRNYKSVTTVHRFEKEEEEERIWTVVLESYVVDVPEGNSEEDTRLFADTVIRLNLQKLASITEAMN
Variant	relative binding score [%]
D153T	-10.3
V76N	2.2
L112K	-2.52
R46L	24.1
V142L	24.7
N85Y	68.2
E147P	74
R32D	25.4
T101W	0.673
D159S	26.6
E131P	88.2
R123P	72.1
T39Y	52.1
L29A	5.47
C72K	21.6
V100D	-8.6

Study 6
Target: CEP164, C-terminal peptide (human)
Method: DHFR complementation, deep sequencing
Matrix: yeast
Setting: single substitutions, model-inferred values
Relative to: wild type
Reading: higher = weaker binding
Parent: PDZK1, PDZ domain 2 (human); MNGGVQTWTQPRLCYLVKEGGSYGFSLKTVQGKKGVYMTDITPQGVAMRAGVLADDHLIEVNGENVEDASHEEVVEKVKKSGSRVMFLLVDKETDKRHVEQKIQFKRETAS; partner HNRVKVYRF
Variant	binding free energy change
G4R	-0.0376 kcal/mol
V99M	-0.126 kcal/mol
M48E	-0.279 kcal/mol
I59V	0.165 kcal/mol
I59T	0.599 kcal/mol
E100S	-0.117 kcal/mol
S81C	0.179 kcal/mol
Y23F	-0.145 kcal/mol
N62W	0.578 kcal/mol
V74G	1.23 kcal/mol
L88W	0.0959 kcal/mol
V74N	1.13 kcal/mol
E72Y	0.553 kcal/mol
V30I	-0.0694 kcal/mol

Further values, each from its own experiment
Substance	target	assay	test system	conditions	how to read	endpoint	result
PhoQ, residues 284 288 289 292 302 303 ALASRC	PhoP, residues 12 14 15 18 19 NQFFI (Escherichia coli, UniProt P23836)	Sort-seq, measured: YFP reporter	E. coli	PhoQ-PhoP variant library, together with: 10 µM Mg2+	relative to: high Mg2+ state, higher = stronger signaling	fold induction	4

Excerpt of the above (study 3):
Variant	normalised enrichment score
E10Q	7.97
R6V	6.91
L7Q	0.23
R6H	6.76
R6C	7.14
D12G	8.01
D8T	7.43
V3P	7.63
D8L	7.49
R6G	5.36
